Results from different studies.
Every numbered part comes from another study and shows a few of its results, in no order.
UniProt Q8TDX7, sequence (whole entry, looked up): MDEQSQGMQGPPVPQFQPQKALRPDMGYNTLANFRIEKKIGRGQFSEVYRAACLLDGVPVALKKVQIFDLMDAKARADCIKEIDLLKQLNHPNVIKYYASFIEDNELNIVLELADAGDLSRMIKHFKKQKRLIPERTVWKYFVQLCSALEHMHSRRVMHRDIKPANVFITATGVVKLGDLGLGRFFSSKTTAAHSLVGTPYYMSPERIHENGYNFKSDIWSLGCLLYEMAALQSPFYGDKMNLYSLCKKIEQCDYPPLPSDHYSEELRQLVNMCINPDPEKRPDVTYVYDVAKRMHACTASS
UniProt Q14164, sequence (whole entry, looked up): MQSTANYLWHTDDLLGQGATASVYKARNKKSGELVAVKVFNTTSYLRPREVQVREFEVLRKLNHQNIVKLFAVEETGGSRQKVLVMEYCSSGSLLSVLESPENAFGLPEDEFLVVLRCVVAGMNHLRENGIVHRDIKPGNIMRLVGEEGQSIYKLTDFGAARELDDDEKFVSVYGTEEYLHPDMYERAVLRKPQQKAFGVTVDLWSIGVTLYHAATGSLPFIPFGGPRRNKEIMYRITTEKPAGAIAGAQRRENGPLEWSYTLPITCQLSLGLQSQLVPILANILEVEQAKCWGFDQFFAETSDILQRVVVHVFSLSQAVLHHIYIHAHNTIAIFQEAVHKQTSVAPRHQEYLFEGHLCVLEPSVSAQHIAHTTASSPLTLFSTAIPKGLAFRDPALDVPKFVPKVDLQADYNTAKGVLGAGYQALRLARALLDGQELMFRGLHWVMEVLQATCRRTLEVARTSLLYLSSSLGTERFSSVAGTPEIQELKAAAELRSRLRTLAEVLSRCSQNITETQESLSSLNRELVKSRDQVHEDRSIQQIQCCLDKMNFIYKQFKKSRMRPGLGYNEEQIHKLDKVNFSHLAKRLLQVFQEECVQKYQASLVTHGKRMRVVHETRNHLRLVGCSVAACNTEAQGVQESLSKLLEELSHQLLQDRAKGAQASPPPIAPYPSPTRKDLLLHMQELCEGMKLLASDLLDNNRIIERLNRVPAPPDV

Set 1 — organism: Sarcocystis neurona; observed: parasite growth; tested at: 10 µM; time: 96 h; notes: second screen; baseline: untreated
`CC[C@H](C)C(=O)O[C@H]1CCC=C2C=C[C@H](C)[C@H](CC[C@@H]3C[C@@H](O)CC(=O)O3)[C@H]21`: “log2 fold change” 0.26.
For `Fc1ccc([C@@H]2CCNC[C@H]2COc2ccc3c(c2)OCO3)cc1`, “log2 fold change” read 0.19.
For `CC#C[C@]1(O)CC[C@H]2[C@@H]3CCC4=CC(=O)CCC4=C3[C@@H](c3ccc(N(C)C)cc3)C[C@@]21C`, “log2 fold change” read -0.13.
Under “log2 fold change”, `COc1ccc(Cl)cc1C(=O)NCCc1ccc(S(=O)(=O)NC(=O)NC2CCCCC2)cc1` is recorded as -0.0121.
`CC(C)OC(=O)CCC/C=C\C[C@@H]1[C@@H](CC[C@@H](O)CCc2ccccc2)[C@H](O)C[C@@H]1O`: “log2 fold change” 0.36.

Set 2 — observed: cell-free assay; method: competition with immobilised ligand; tested at: 0.1 µM
SMILES: Cn1nc(C(=O)NCc2ccc(C(=O)O)cc2)cc1-c1ccc2[nH]ccc2c1
EGFR (Homo sapiens, UniProt P00533, T790M) — remaining binding: 100%.
It gave 100% for remaining binding (IKBKE (Homo sapiens, UniProt Q14164)).
It gave 98% for remaining binding (NEK7 (Homo sapiens, UniProt Q8TDX7)).
The remaining binding was 86% (FLT3 (Homo sapiens, UniProt P36888)).

Set 3 — species: human; medium: microsomes or S9; tested at: 2 µM; time: 0.5 h
`Cc1noc(C)c1Cc1nc(-c2c(Cl)nc3sccn23)no1` has a remaining compound of 12.6%.
The remaining compound of `CCN(C(=O)c1ccccc1)[C@@H]1CCO[C@H](c2ccc(C(=O)Nc3ncccc3C)cc2)C1` is reported as 96.5%.
The remaining compound of `Cn1nc(C2CCN(C(=O)[C@H]3CC(=O)NC(=O)N3)CC2)n(-c2ccccc2)c1=O` is reported as 80.6%.

Set 4 — observed: enzyme activity; action: inhibitor; tested at: 0.5 µM; baseline: control
Target: Tyrosine-protein kinase TXK (TXK, Homo sapiens, UniProt P42681)
Residues (P42681 1-527): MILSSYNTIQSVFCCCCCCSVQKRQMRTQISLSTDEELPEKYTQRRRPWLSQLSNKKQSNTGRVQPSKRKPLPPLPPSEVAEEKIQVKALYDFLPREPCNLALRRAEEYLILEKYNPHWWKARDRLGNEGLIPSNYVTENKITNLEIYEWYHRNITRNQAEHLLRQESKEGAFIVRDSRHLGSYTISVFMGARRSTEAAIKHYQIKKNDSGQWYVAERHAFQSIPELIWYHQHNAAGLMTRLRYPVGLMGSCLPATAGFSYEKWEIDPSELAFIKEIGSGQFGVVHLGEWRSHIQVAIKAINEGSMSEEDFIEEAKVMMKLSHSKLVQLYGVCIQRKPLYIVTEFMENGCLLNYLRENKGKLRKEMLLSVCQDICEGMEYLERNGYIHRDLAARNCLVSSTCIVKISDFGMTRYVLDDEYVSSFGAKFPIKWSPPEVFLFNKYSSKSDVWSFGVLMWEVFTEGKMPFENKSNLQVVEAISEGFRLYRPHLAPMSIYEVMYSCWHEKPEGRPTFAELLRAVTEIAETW
`O=C1NC(=O)C(c2cn(CCCO)c3ncccc23)=C1c1cnccn1` has a remaining activity of 75.3%.
`OCC(O)CCON=C1C(c2c(O)[nH]c3ccccc23)=Nc2ccccc21` (stereo not drawn) gave a remaining activity of 25.6%.
For `Cn1c2ccccc2c2c3c(c4c5ccccc5n(CCC#N)c4c21)CNC3=O`, the remaining activity was 6.39%.
The remaining activity of `CNC(=O)c1cc(Oc2ccc(NC(=O)Nc3ccc(Cl)c(C(F)(F)F)c3)cc2)ccn1` is reported as 106%.
With `COc1cc2ncnc(Nc3ccc(Oc4ccccc4)cc3)c2cc1OC` the remaining activity was 78%.
`O=C(O)c1ccc2c3c1cccc3c(=O)n1c3ccccc3nc21` gave a remaining activity of 102%.
`Cc1ccc(NC(=O)c2ccc(CN3CCN(C)CC3)cc2)cc1Nc1nc(-c2cccnc2)cs1` has a remaining activity of 101%.
With `Cc1ccc(Nc2nccc(N(C)c3ccc4c(C)n(C)nc4c3)n2)cc1S(N)(=O)=O` the remaining activity was 40.2%.
`Nc1[nH]nc2nc3ccccc3nc12` has a remaining activity of 97.6%.
`CC(C)[C@H](CO)Nc1nc(Nc2cc(N)cc(Cl)c2)c2ncn(C(C)C)c2n1` gave a remaining activity of 42.5%.
With `COc1cc2ncnc(Nc3ccc(F)c(Cl)c3)c2cc1OCCCN1CCOCC1` the remaining activity was 83.2%.
`C#Cc1cccc(Nc2ncnc3cc(OCCOC)c(OCCOC)cc23)c1` gave a remaining activity of 88.5%.
For `Nc1ncnc2n[nH]c(Nc3ccc(F)cc3)c12`, the remaining activity was 67.6%.
`COc1ccc(C(=O)Nc2sc3c(c2C(N)=O)CCCC3)cc1OC` has a remaining activity of 96.2%.

Set 5 — cell line: HuT78; tested at: 2 µM; time: 48 h; baseline: untreated
`O=C1N=C(NCc2cccs2)S/C1=C\c1ccc2ncccc2c1` gave a viability of 117%.
The viability of `Cc1ccc(S(=O)(=O)/C=C/C#N)cc1` is reported as 61.3%.
For `CN1CCN(CCOc2cc(OC3CCOCC3)c3c(Nc4c(Cl)ccc5c4OCO5)ncnc3c2)CC1`, the viability was 127%.

Other studies, line by line
`CC(=O)N[C@@H](Cc1c[nH]c2ccccc12)C(=O)N[C@@H](CCC(=O)C=[N+]=[N-])C(=O)OC(C)C` has a tumour volume of 0 mm3 (mice, MC-38 tumour rechallenge; 1 mg/kg, day 32 after injection).

Repeated from above (set 3):
The remaining compound of `Cn1nc(C2CCN(C(=O)[C@H]3CC(=O)NC(=O)N3)CC2)n(-c2ccccc2)c1=O` is reported as 80.6%.
The remaining compound of `CCN(C(=O)c1ccccc1)[C@@H]1CCO[C@H](c2ccc(C(=O)Nc3ncccc3C)cc2)C1` is reported as 96.5%.
`Cc1noc(C)c1Cc1nc(-c2c(Cl)nc3sccn23)no1` has a remaining compound of 12.6%.
